Measurements collected from several papers.
Lines come from different studies, so protocols differ.

| Structure (SMILES) | test system | setting | AUC |
| --- | --- | --- | --- |
| Cc1cc(-c2nccc3c2ccn3CC(=O)Nc2ccc(-c3cnccn3)cn2)ccn1 | human, plasma | oral, 5 mg once daily, day 1, geometric mean | 0.403 µM·h |
| C/C(=C\c1csc(C)n1)[C@@H]1C[C@@H]2O[C@]2(C)CCC[C@H](C)[C@H](O)[C@@H](C)C(=O)C(C)(C)[C@@H](O)CC(=O)N1 | human patients, plasma | intravenous, 20 mg/m2, cycle 1 day 1, A | 973 ng·h/mL |
| COc1ccc2[nH]c([S@+]([O-])Cc3ncc(C)c(OC)c3C)nc2c1 | human, dried blood spots | oral, 10 mg omeprazole, together with: fluvoxamine | 585 ng·h/mL |
| CN(C)CCC[C@@]1(c2ccc(F)cc2)OCc2cc(C#N)ccc21 | human | intramuscular, dose not given | 955 ng·h/mL |
| COc1cc2nccc(Oc3ccc(NC(=O)C4(C(=O)Nc5ccc(F)cc5)CC4)cc3)c2cc1OC | human metastatic RCC, SD/PR, plasma | oral, dose not given, median | 24600 ng·h/mL |
| COc1ccnc(C[S+]([O-])c2nc3ccc(OC(F)F)cc3[nH]2)c1OC (stereo not drawn) | human, plasma | oral, dose not given, median | 5700 ng·h/mL |
| N#Cc1cc(NC(=O)[C@H]2c3ccccc3C(=O)N(CC(F)(F)F)[C@@H]2c2cccnc2)ccc1F | human, plasma | oral, 150 mg, median | 4250 ng·h/mL |
| CCN(CC)CCNC(=O)c1c(C)[nH]c(/C=C2\C(=O)Nc3ccc(F)cc32)c1C | human patients, plasma | oral, dose not given, cycle 1 day 15 | 2140 ng·h/mL |
| CNC(=O)n1ccc2cc(Oc3ccnc(NC(=O)c4ccc(C5CCN(CCO)CC5)cc4)c3)c(OCCOC)cc21 | healthy human, plasma | oral, 35 mg, geometric mean, 0-72 h, together with: rabeprazole 20 mg | 109 ng·h/mL |
| Cn1cnc2c(F)c(Nc3ccc(Br)cc3Cl)c(C(=O)NOCCO)cc21 | human ESRD on haemodialysis | oral, 50 mg, after dialysis | 1880 ng·h/mL |
| Cc1ccc(C(=O)NC2CC2)cc1-n1ncc(C(=O)c2cccc(C#N)c2)c1N | healthy human | oral, 30 mg single, mean | 16700 ng·h/mL |
| C[C@@H](c1ccc2nccn2c1)n1nnc2ncc(-c3cnn(C)c3)nc21 | human, plasma | oral, dose not given, cycle 1 day 1, single dose, all | 17300 ng·h/mL |
| COCCc1ccc(OCC(O)CNC(C)C)cc1 (stereo not drawn) | human | dose not given, alone | 617 ng·h/mL |
| CC#CC(=O)N1CCC[C@H]1c1nc(-c2ccc(C(=O)Nc3ccccn3)cc2)c2c(N)nccn12 | human, plasma | oral, 50 mg single dose | 239 ng·h/mL |
| O=C(COc1ccc(Cl)cc1)NC12CC(c3nnc([C@H]4C[C@@H](OC(F)(F)F)C4)o3)(C1)C2 | healthy human volunteers fasted, plasma | oral, 45 mg single dose, geometric mean | 29.9 µM·h |

For quick reference, copied from above:
| Structure (SMILES) | test system | setting | AUC |
| --- | --- | --- | --- |
| CC#CC(=O)N1CCC[C@H]1c1nc(-c2ccc(C(=O)Nc3ccccn3)cc2)c2c(N)nccn12 | human, plasma | oral, 50 mg single dose | 239 ng·h/mL |
